Measurements from different studies.
Parts stem from different laboratories: compare values within a part only.

Set 1 — technique: universal PBM; form: double-stranded DNA, one strand shown; medium: in vitro; tested at: not given; direction: higher = stronger binding
Target: Sal-like protein 4, full length isoform B (SALL4, Homo sapiens, UniProt Q9UJQ4-2, residues 1-616)
Setting: 8-mer, flanks averaged, mean of replicates
Sequence	E-score
ATGAATAG	0.255
TGACGGCA	-0.131
ATTCTAGC	0.0486

Set 2 — technique: RNA Bind-n-Seq; form: RNA; medium: in vitro; tested at: 365 nM; reference: no-protein control; direction: higher = stronger binding
Target: RNA binding protein fox-1 homolog 2, RRM domain, GST-SBP tag (RBFOX2, Homo sapiens, UniProt O43251-10, residues 100-194)
Setting: natural RNA segment, single round, ends assumed
Construct (chain): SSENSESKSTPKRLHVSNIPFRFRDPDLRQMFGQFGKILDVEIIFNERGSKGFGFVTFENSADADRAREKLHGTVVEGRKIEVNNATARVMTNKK
Sequence	RBNS enrichment (R)
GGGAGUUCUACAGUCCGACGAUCAGGACCCGGGUCAUGGGUCAGUGUUAGUGGUAGCGUGCUCUCAUUCGCUUGGAAGUGGUGGCCAUGUGGCCGUUAUACAGCCUUUGCUGAUAUGGCCCUCAUCGUCGUGUUGGAAUUCUCGGGUGCCAA	0.419
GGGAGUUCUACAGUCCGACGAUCAGCCUAGCCACAGAGUCUAAGAUUCUGUAUCCUCUGACAUUUUGGAAAUGAUACACUACUGGCUUAAGUGAUGACUCUUUCAGAUUUUCAGUAUUUUAUACAACUACUGCUGGAAUUCUCGGGUGCCAA	0.326
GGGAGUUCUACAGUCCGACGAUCCACUAGUGACCACUCCCUGAGAGGCCGCAAUCAGGUGGGAAUGAAAAGGCCUCCUCCAGCGGGGCAGGCUGCUCAGUGUGGGUGGCAAGUUGUAGCCCAGCUGGAGGACAUGGAAUUCUCGGGUGCCAA	0.323
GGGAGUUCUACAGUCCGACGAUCUAAGGCUGGCGUGGCACGUUUGGGGACUCUGCCAGUCGGAGUUGCUGGGCACAUGCUGUGUACCACCGACUGCAGUCUGGCCCUGUUCUUAGUGGCAUCUGCCAAUGAGAUGGAAUUCUCGGGUGCCAA	0.479
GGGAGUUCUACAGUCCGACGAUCUAGAAAGCUCUUGCAUGCUUGAGUCCACCAUUGGGGGAAAUGACAGAAAACUGGACCUGAGGGCAUUAGGAACAUCCUACAGAGUUGUGUUUAGUGUCGUUUGCCAUGGUUGGAAUUCUCGGGUGCCAA	8.03
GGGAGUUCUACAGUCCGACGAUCAAGAUUUUUGUGAGUUUUCCAUCAUGUUGGCCAUCACAUCCUGACUGAAGUCUCAAGAUUCCUGGAAGUGAAGGAAGACACAAAGCUUAAAACUCAGAUGAGAUGCUCUGUGGAAUUCUCGGGUGCCAA	0.378
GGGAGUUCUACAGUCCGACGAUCGCAACCAGAAAGGGUGUCUGGGAUAUGAGCAGAUGUGGCAUCUUCCAGAAAUGAUCAUCUGGUUAUGGAAUGAAGGGACCUGUUCUCAAGCAAAGGUCAUCACAGUGACCUGGAAUUCUCGGGUGCCAA	0.832
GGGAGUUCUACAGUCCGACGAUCGUCCCCUCCACUUCCACUGCCAAACAGCUUGGUGAAGAAACAAGAAGGGAACUAUGCCCUGGGCCAGGGCGAAUGCGUGGCUGGGCAGUGCCCAUCAUGGCAUUUUCACAUGGAAUUCUCGGGUGCCAA	3.08

Set 3 — technique: protein-binding microarray; form: double-stranded DNA, one strand shown; medium: in vitro; tested at: 250 nM; setting: 60-bp whole probe; with: salmon DNA 0.4 mg/ml; reference: random background probes; direction: higher = stronger binding; constant ends, left off below: GCCTAGCAC … GTCTTGATTCGCTTGACGCTGCTG
Target: Interferon regulatory factor 5, full length, phosphomimetic (IRF5, Homo sapiens, UniProt Q13568-2, residues 1-514, K96S/S451D/S453D/S456D/S462D)
Sequence	log fluorescence
GACGGTCTCGTACTGGGGACGTGCTAG	-0.321 z-score
GACGAACTGGGGAATGGAGACGTGCTA	-0.517 z-score
GACGGTAGCGACTATCGGGACGTGCTA	1.3 z-score
TTAGGACTGGACTATCGGCTAGTGCTA	1.76 z-score
GTGGAAATCAGTATGTTCCCGTGCTAG	0.221 z-score

Other studies, line by line
Substance	target	assay	test system	conditions	how to read	measurement	result
PhoQ, residues 284 288 289 292 302 303 NLCILV	PhoP, residues 12 14 15 18 19 AYFRS (Escherichia coli, UniProt P23836)	Sort-seq, refers to: YFP reporter	E. coli	PhoQ-PhoP variant library, with: 10 µM Mg2+	reference: high Mg2+ state, higher = stronger signaling	fold induction	14.9

Repeated from above (set 2):
Sequence	RBNS enrichment (R)
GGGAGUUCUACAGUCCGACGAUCGUCCCCUCCACUUCCACUGCCAAACAGCUUGGUGAAGAAACAAGAAGGGAACUAUGCCCUGGGCCAGGGCGAAUGCGUGGCUGGGCAGUGCCCAUCAUGGCAUUUUCACAUGGAAUUCUCGGGUGCCAA	3.08
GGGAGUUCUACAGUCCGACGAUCUAGAAAGCUCUUGCAUGCUUGAGUCCACCAUUGGGGGAAAUGACAGAAAACUGGACCUGAGGGCAUUAGGAACAUCCUACAGAGUUGUGUUUAGUGUCGUUUGCCAUGGUUGGAAUUCUCGGGUGCCAA	8.03
